Measured values of several laboratories.
± marks the error that the study gave.

CC1(COc2ccc3c(c2)ncn3-c2ccc3cccc(N4CCC(N)CC4)c3n2)COC1 — Cmax (human patients, recurrent/progressive HGG or DIPG, serum; oral, 220 mg/m^2, day 1, median): 1620 nM
COc1ccc(F)cc1C(=O)NCc1ccc(-c2nn([C@@H](C)C(F)(F)F)c(N)c2C(N)=O)cc1 — Cmax (human, plasma; oral, 200 mg single dose, alone arm, itraconazole interaction study): 4000 ng/mL
Cc1ncnc2c1ccn2[C@@H]1C[C@H](Oc2cc(C(F)F)c(F)c3c2CNCC3)[C@@H](O)[C@H]1O — Cmax (human; oral, 6 mg twice daily): 51.8 ng/mL
Cn1cncc1[C@@](N)(c1ccc(Cl)cc1)c1ccc2c(c1)c(-c1cccc(Cl)c1)cc(=O)n2C — Cmax (healthy human subjects, plasma; oral, 100 mg, fasted): 260 ng/mL
COc1cc(-c2cnc3cc(OCCN4CCOCC4)ccn23)cc2c1C(=O)N(CC(F)(F)F)CC2 — Cmax (LC-MS; human, plasma; oral, 350 mg, day 5, added: sulfasalazine 1000 mg): 1130 ng/mL
COc1cc(Nc2c(C#N)cnc3cc(OCCCN4CCN(C)CC4)c(OC)cc23)c(Cl)cc1Cl — Cmax (human, normal hepatic function (NCI), plasma; single dose, geometric mean, total drug): 41.3 ng/mL
C[C@H](CCC(=O)NCCS(=O)(=O)O)[C@H]1CC[C@H]2[C@@H]3CC[C@@H]4C[C@H](O)CC[C@]4(C)[C@H]3C[C@H](O)[C@]12C — Cmax (human, plasma; concentration not given, endogenous control diurnal): 174 ± 39 nM
CN(CC#N)C(=O)C[C@H](Nc1nc2ccccc2[nH]1)c1cccc(C(F)(F)F)c1 — Cmax (human; intravenous infusion, 2 mg/kg, 1 mg/mL formulation): 4640 ± 106 ng/mL
Nc1ccc(-c2nc([C@H]3CCc4cc(-c5cc(Cl)ccc5-n5cnnn5)cc(=O)n43)c(F)[nH]2)c(F)n1 — Cmax (human, plasma; oral, 150 mg once daily, day 14): 2000 ng/mL
NC1(C(=O)N[C@@H](CCO)c2ccc(Cl)cc2)CCN(c2nc[nH]c3nccc2-3)CC1 — Cmax (human patients, plasma; dose not given, cohort 160/320, cycle 2, geometric mean): 353 ng/mL
N[C@]1(C(=O)O)[C@H]2[C@@H](C[C@@H]1F)[C@@H]2C(=O)O — Cmax (human, both sexes, plasma; oral, 20 mg, fed, single dose): 59.9 ng/mL
NC(CO)(CO)CCc1ccc(Sc2cccc(OCc3ccccc3)c2)cc1Cl — Cmax (human male fasted, whole blood; oral, 3 mg, added: cyclosporin 100 mg b.i.d.): 0.88 ng/mL
CC[C@H](C)[C@@H]([C@@H](CC(=O)N1CCC[C@H]1[C@H](OC)[C@@H](C)C(=O)N[C@@H](Cc1ccccc1)C(=O)NCCCO)OC)N(C)C(=O)[C@@H](NC(=O)[C@H](C(C)C)N(C)C)C(C)C — Cmax (human patients, plasma; intravenous, 43 mg/m², cycle 1 geometric mean): 7.94 ng/mL
N[C@@H]1c2cccnc2[C@H](OC(=O)N2CCC(n3c(=O)[nH]c4ncccc43)CC2)CC[C@H]1c1cccc(F)c1F — Cmax (human, plasma; oral, 75 mg single dose, alone, geometric mean, rifampin DDI study): 880 ng/mL
CCCS(=O)(=O)N[C@H]1C[C@@H](N(C)c2ncnc3[nH]ccc23)C1 — Cmax (human, plasma, total; oral, 200 mg once daily, 4 days, steady state): 1180 ng/mL
CC1=C(c2cccc(O)c2)[C@H](c2ccc(OCCN3CC(CF)C3)cc2)Oc2ccc(O)cc21 — Cmax (human, plasma; oral, 1400 mg once daily, steady state geometric mean): 166 ng/mL
Cc1cc(-c2nccc3c2ccn3CC(=O)Nc2ccc(-c3cnccn3)cn2)ccn1 — Cmax (human, plasma; oral, 20 mg once daily, day 16, geometric mean): 321 nM
CCO — Cmax (gas chromatography; human, plasma; 0.5 g/kg, alone, with placebo tablets): 743000 ± 113000 ng/mL
CC(C)n1nc(-c2ccc3oc(N)nc3c2)c2c(N)ncnc21 — Cmax (human, plasma; oral, 3 mg once daily, cycle 1 day 1): 42.8 ng/mL
Cc1cc(Nc2cc3ncccc3c(N[C@@H]3C[C@H]4CC[C@@H](C3)N4CCC#N)n2)n[nH]1 — Cmax (human, plasma; 100 mg single dose, mean): 4.44 ng/mL

For quick reference, copied from above:
CN(CC#N)C(=O)C[C@H](Nc1nc2ccccc2[nH]1)c1cccc(C(F)(F)F)c1 — Cmax (human; intravenous infusion, 2 mg/kg, 1 mg/mL formulation): 4640 ± 106 ng/mL
C[C@H](CCC(=O)NCCS(=O)(=O)O)[C@H]1CC[C@H]2[C@@H]3CC[C@@H]4C[C@H](O)CC[C@]4(C)[C@H]3C[C@H](O)[C@]12C — Cmax (human, plasma; concentration not given, endogenous control diurnal): 174 ± 39 nM
COc1cc(-c2cnc3cc(OCCN4CCOCC4)ccn23)cc2c1C(=O)N(CC(F)(F)F)CC2 — Cmax (LC-MS; human, plasma; oral, 350 mg, day 5, added: sulfasalazine 1000 mg): 1130 ng/mL
